# Experimental data pooled from the literature.
# Numbered parts are unrelated; each lists some results of a single study. ± gives the spread as reported.
# Chain of UniProt P25090 (whole entry, looked up): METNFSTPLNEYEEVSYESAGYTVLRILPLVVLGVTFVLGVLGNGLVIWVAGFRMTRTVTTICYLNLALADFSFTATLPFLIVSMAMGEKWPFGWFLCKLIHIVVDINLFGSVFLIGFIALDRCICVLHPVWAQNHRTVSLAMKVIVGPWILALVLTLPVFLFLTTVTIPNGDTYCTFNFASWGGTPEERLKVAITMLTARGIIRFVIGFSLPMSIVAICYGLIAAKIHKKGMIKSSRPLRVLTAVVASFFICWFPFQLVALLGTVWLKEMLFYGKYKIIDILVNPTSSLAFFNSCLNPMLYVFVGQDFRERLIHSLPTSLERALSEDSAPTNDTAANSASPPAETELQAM

# Series 1
# Species: Kunming mice both sexes
# Route: intraperitoneal
# Time: 7 days
SMILES,LD50 [mg/kg]
C=CC12CNC3C4COC(CC41)C1(C(=O)Nc4ccccc41)C32 (stereo not drawn),> 30
CCC1(CO)NC2CC3(C(=O)N(OC)c4ccccc43)C3CC1C2CO3 (stereo not drawn),0.54
CON1C(=O)C2(CC3N=C(C(C)=O)C4CC2OCC34)c2ccccc21 (stereo not drawn),> 30
CCC1NC2CC3(C(=O)N(OC)c4ccccc43)C3OCC2C1C3O (stereo not drawn),0.17
CC=C1CNC2CC3(C(=O)N(OC)c4cc(OC)ccc43)C3CC1C2CO3 (stereo not drawn),0.15
CON1C(=O)C2(CC3NC(=O)C4CC2OCC34)c2ccccc21 (stereo not drawn),> 30

# Further values, each from its own experiment
SMILES,tested on,assay,test system,conditions,measurement,result
CC[C@H](C)[C@H](NC(=O)[C@H](Cc1ccccc1)NC(=O)[C@H](CC(=O)O)NC(=O)[C@H](CCCCN)NC(=O)[C@H](C)NC(=O)[C@H](CCCCN)NC(=O)[C@H](CC(N)=O)NC(=O)[C@H](CC(C)C)NC(=O)[C@H](Cc1c[nH]c2ccccc12)NC(=O)[C@H](CCC(=O)O)NC(=O)[C@H](CCCCN)NC(=O)[C@H](Cc1c[nH]c2ccccc12)NC(=O)CNC(=O)[C@H](C)N)C(=O)N[C@@H](CCCCN)C(=O)N[C@@H](CCC(=O)O)C(=O)N[C@@H](CCCCN)C(=O)NCC(=O)N[C@@H](CC(C)C)C(=O)NCC(=O)N[C@@H](CCSC)C(=O)N[C@@H](CC(C)C)C(=O)N[C@@H](CO)C(=O)N[C@@H](C)C(=O)N[C@@H](C)C(=O)N[C@@H](C)C(=O)N[C@@H](CC(N)=O)C(=O)N[C@@H](C)C(=O)N[C@@H](C)C(=O)N[C@@H](CC(C)C)C(=O)N[C@@H](CC(N)=O)C(=O)O,HEK293 cells,resazurin,,24 h,CC50,16.9 µM
CC[C@H](C)[C@H](NC(=O)CNC(=O)[C@H](C)NC(=O)[C@@H]1CCCN1C(=O)CNC(=O)[C@H](C)NC(=O)[C@H](CCC(=O)O)NC(=O)[C@H](C)NC(=O)[C@H](CC(=O)O)NC(=O)[C@H](C)NC(=O)[C@H](CCC(=O)O)NC(=O)[C@H](C)NC(=O)[C@H](CCC(=O)O)NC(=O)[C@@H]1CCCN1C(=O)[C@@H](N)CCC(=O)O)C(=O)NCC(=O)N[C@@H](C)C(=O)N[C@H](C(=O)N[C@@H](CC(C)C)C(=O)N[C@@H](CCCCN)C(=O)N[C@H](C(=O)N[C@@H](CC(C)C)C(=O)N[C@H](C(=O)N[C@H](C(=O)NCC(=O)N[C@@H](CC(C)C)C(=O)N1CCC[C@H]1C(=O)N[C@@H](C)C(=O)N[C@@H](CC(C)C)C(=O)N[C@H](C(=O)N[C@@H](CO)C(=O)N[C@@H](Cc1c[nH]c2ccccc12)C(=O)N[C@H](C(=O)N[C@@H](CCCCN)C(=O)N[C@@H](CCCNC(=N)N)C(=O)N[C@@H](CCCCN)C(=O)N[C@@H](CCCNC(=N)N)C(=O)N[C@@H](CCC(N)=O)C(=O)N[C@@H](CCC(N)=O)C(N)=O)[C@@H](C)CC)[C@@H](C)CC)[C@@H](C)O)[C@@H](C)O)C(C)C)C(C)C,"human erythrocytes, washed",,,"1 h, 37 °C, 2% v/v RBC suspension",HD50,54.2 ± 2.2 µmol/L
CC[C@H](C)[C@H](NC(=O)CNC(=O)[C@H](CC(C)C)NC(=O)CNC(=O)[C@H](CCCCN)NC(=O)[C@H](CCC(=O)O)NC(=O)[C@H](CCCCN)NC(=O)[C@@H](NC(=O)[C@H](Cc1ccccc1)NC(=O)[C@H](CC(=O)O)NC(=O)[C@H](CCCCN)NC(=O)[C@H](C)NC(=O)[C@H](CCCCN)NC(=O)[C@H](CC(N)=O)NC(=O)[C@H](CC(C)C)NC(=O)[C@H](Cc1c[nH]c2ccccc12)NC(=O)[C@H](CC(=O)O)NC(=O)[C@H](CCCCN)NC(=O)[C@@H](NC(=O)CNC(=O)[C@H](C)N)[C@@H](C)O)[C@@H](C)CC)C(=O)N[C@@H](CC(C)C)C(=O)N[C@@H](CO)C(=O)N[C@@H](C)C(=O)N[C@@H](C)C(=O)N[C@@H](C)C(=O)N[C@@H](CC(N)=O)C(=O)N[C@@H](C)C(=O)N[C@@H](C)C(=O)N[C@H](C(=O)N[C@@H](CC(N)=O)C(=O)O)[C@@H](C)CC,HEK293 cells,resazurin,,24 h,CC50,> 250 µM
CC[C@H](C)[C@H](NC(=O)[C@H](Cc1c[nH]c2ccccc12)NC(=O)[C@H](CCCCN)NC(=O)[C@@H](NC(=O)[C@H](CC(C)C)NC(=O)[C@H](CC(=O)O)NC(=O)[C@H](CO)NC(=O)[C@@H](NC(=O)[C@@H](NC(=O)[C@H](CO)NC(=O)[C@@H](NC(=O)[C@@H](NC(=O)[C@H](CC(=O)O)NC(=O)[C@H](CCC(N)=O)NC(=O)[C@H](C)NC(=O)[C@H](CCSC)NC=O)[C@@H](C)CC)[C@@H](C)CC)[C@@H](C)O)[C@@H](C)CC)C(C)C)C(=O)N[C@H](C(=O)N[C@@H](CC(=O)O)C(=O)N[C@H](C(=O)N[C@H](C(=O)N[C@@H](CC(N)=O)C(=O)N[C@@H](CCCCN)C(=O)N[C@@H](Cc1ccccc1)C(=O)N[C@H](C(=O)N[C@@H](CCCCN)C(=O)N[C@@H](CCCCN)C(=O)O)[C@@H](C)O)C(C)C)[C@@H](C)O)[C@@H](C)CC,"FPR2 (Homo sapiens, UniProt P25090)","agonist, cell-based",,,EC50,0.0427 µM
CC[C@H](C)[C@H](NC(=O)[C@H](Cc1ccccc1)NC(=O)[C@H](CC(=O)O)NC(=O)[C@H](CCCCN)NC(=O)[C@H](C)NC(=O)[C@H](CCCCN)NC(=O)[C@H](CC(N)=O)NC(=O)[C@H](CC(C)C)NC(=O)[C@H](Cc1c[nH]c2ccccc12)NC(=O)[C@H](CCC(=O)O)NC(=O)[C@H](CCCCN)NC(=O)[C@@H](NC(=O)CNC(=O)[C@H](C)N)[C@@H](C)O)C(=O)N[C@@H](CCCCN)C(=O)N[C@@H](CCC(=O)O)C(=O)N[C@@H](CCCCN)C(=O)NCC(=O)N1CCC[C@H]1C(=O)NCC(=O)N[C@@H](CCSC)C(=O)N[C@@H](CC(C)C)C(=O)N[C@@H](CO)C(=O)N[C@@H](C)C(=O)N[C@@H](C)C(=O)N[C@@H](C)C(=O)N[C@@H](CC(N)=O)C(=O)N[C@@H](C)C(=O)N[C@@H](C)C(=O)N[C@@H](CC(C)C)C(=O)N[C@@H](CC(N)=O)C(=O)O,Lucilia cuprina,,,"thorax injection, 1 h",PD50,> 50 nmol/g
CC(C)C[C@@H]1NC(=O)[C@H](CCCNC(=N)N)NC(=O)[C@@H]2CCCN2C(=O)[C@@H]2CSSC[C@H](NC(=O)CNC(=O)[C@@H]3CCCN3C(=O)[C@H](CCCCN)NC(=O)[C@H](CC(=O)O)NC(=O)[C@@H](NC(=O)CN)C(C)C)C(=O)N[C@@H](CCCNC(=N)N)C(=O)N[C@@H](Cc3ccc(O)cc3)C(=O)N[C@@H](CC(C)C)C(=O)N[C@@H](Cc3ccccc3)C(=O)NCC(=O)NCC(=O)N[C@H]3CSSC[C@H](NC(=O)CNC1=O)C(=O)N[C@@H](CCCCN)C(=O)NCC(=O)N[C@@H](CCCCN)C(=O)NCC(=O)N[C@@H](Cc1c[nH]cn1)C(=O)N[C@@H](CC(=O)O)C(=O)N[C@@H](Cc1ccc(O)cc1)C(=O)N[C@H](C(=O)N[C@@H](C)C(=O)N[C@@H](Cc1c[nH]c4ccccc14)C(=O)N[C@@H](CC(=O)O)C(=O)NCC(=O)N[C@H](C(=O)N[C@@H](Cc1ccccc1)C(=O)N[C@@H](CO)C(=O)N[C@@H](CC(=O)O)C(=O)O)[C@@H](C)O)CSSC[C@H](NC(=O)[C@H](CC(=O)O)NC(=O)[C@H](CC(=O)O)NC(=O)[C@H](CC(=O)O)NC(=O)[C@H](CO)NC(=O)[C@H](CCCCN)NC3=O)C(=O)N2,,,adult mice,"intraplantar, dose not given",nocifensive behaviour duration,~15 min

# Excerpt of the above (further values, each from its own experiment):
SMILES,tested on,assay,test system,conditions,measurement,result
CC[C@H](C)[C@H](NC(=O)[C@H](Cc1ccccc1)NC(=O)[C@H](CC(=O)O)NC(=O)[C@H](CCCCN)NC(=O)[C@H](C)NC(=O)[C@H](CCCCN)NC(=O)[C@H](CC(N)=O)NC(=O)[C@H](CC(C)C)NC(=O)[C@H](Cc1c[nH]c2ccccc12)NC(=O)[C@H](CCC(=O)O)NC(=O)[C@H](CCCCN)NC(=O)[C@H](Cc1c[nH]c2ccccc12)NC(=O)CNC(=O)[C@H](C)N)C(=O)N[C@@H](CCCCN)C(=O)N[C@@H](CCC(=O)O)C(=O)N[C@@H](CCCCN)C(=O)NCC(=O)N[C@@H](CC(C)C)C(=O)NCC(=O)N[C@@H](CCSC)C(=O)N[C@@H](CC(C)C)C(=O)N[C@@H](CO)C(=O)N[C@@H](C)C(=O)N[C@@H](C)C(=O)N[C@@H](C)C(=O)N[C@@H](CC(N)=O)C(=O)N[C@@H](C)C(=O)N[C@@H](C)C(=O)N[C@@H](CC(C)C)C(=O)N[C@@H](CC(N)=O)C(=O)O,HEK293 cells,resazurin,,24 h,CC50,16.9 µM
